Measurements gathered from unrelated publications.
A part holds a random share of what one study measured. Changes are numbered by the printed parent chain.

Block 1
Target: Ras GTPase-activating protein-binding protein 1, full length (G3BP1, Homo sapiens, UniProt Q13283)
Sequence of UniProt Q13283 (whole entry, looked up): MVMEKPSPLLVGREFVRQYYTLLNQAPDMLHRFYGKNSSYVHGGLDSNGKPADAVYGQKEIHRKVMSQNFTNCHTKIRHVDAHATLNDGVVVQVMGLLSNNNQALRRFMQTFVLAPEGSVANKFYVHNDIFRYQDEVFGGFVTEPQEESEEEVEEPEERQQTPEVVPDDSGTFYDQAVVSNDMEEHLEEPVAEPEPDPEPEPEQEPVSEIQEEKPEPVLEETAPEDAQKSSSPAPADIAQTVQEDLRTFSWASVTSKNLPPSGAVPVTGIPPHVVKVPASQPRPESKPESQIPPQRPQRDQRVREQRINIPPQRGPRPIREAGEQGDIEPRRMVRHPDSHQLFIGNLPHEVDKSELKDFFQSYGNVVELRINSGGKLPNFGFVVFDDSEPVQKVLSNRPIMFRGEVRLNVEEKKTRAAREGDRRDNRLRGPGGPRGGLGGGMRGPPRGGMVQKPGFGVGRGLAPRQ
Technique: RNA Bind-n-Seq
Form: RNA
Sample: in vitro
Concentration: 200 nM
Setting: whole 134-nt RNA, ends assumed
Added: 150 mM KCl
Relative to: input library
Direction: higher = stronger binding
Constant ends, left off below: GGGAGUUCUACAGUCCGACGAUC … UGGAAUUCUCGGGUGUCAAGG
Oligonucleotide	log2 enrichment
CUCAAGUCCUGUGCUACACAUCGUAUGUACCGAAUCGGAGGUGGAAAAAAAGGAAAGUAUUAUGUUACGCCGUUCGGAUCUGCACUUCCA	-0.728
AAGUCCUGUGCUACACAUCGUAUGUACCGAAUCAAACCCAAAUUUAAAUUUUUAAAAAAGUAUUAUGUUACGCCGUUCGGAUCUGCACUU	-0.319
UCAAGUCCUGUGCUACACAUCGUAUGUACCGAAUCGGAAAGGAAAGGGGAAAGGGAAAGUAUUAUGUUACGCCGUUCGGAUCUGCACUUC	-0.832
GCAGGAAGUAAAAAGAAAUGGAAAUGCUUCGGAUAGUGGCAGGGGUGGGGGUUGCUAAGGAAAGGGUGGGAUGGGAGUGGGUAAAGAGUU	0.984
UGGGAGGUGGAUUUUGUUUAUUUUUUUAGCUCAUUUCCAGGGGUGGGAAUUUUUUUUUAAUAUCUGUCAUGAAUAAAGUUGUUUUUGAAA	0.189
UGUGCUACACAUCGUAUGUACCGAAUCGGGAAAAAAAGGGAAAAAAAGGGGAAAAAAAGGGGAAAGUAUUAUGUUACGCCGUUCGGAUCU	-0.618
AGUCCUGUGCUACACAUCGUAUGUACCGAAUCGGGCCCCGGGCCCCGGGGCCCCGGGAAAGUAUUAUGUUACGCCGUUCGGAUCUGCACU	0.163
AAACAGCUCUAUAACAAAAUACAAUGCGGGUUCAUGUUAAUGUUUUUAUCUCUAACAGGUUGGUUUCAGUGCUGAUGAAACUUGGGACUC	-0.948
AAGUCCUGUGCUACACAUCGUAUGUACCGAAUCGGGGUUUUGGUUUUGGUUUUGGGGAAAGUAUUAUGUUACGCCGUUCGGAUCUGCACU	-0.901

Block 2
Target: ABI1, truncated, D143A, DHFR fusion (Arabidopsis thaliana)
Technique: DHFR PCA, deep sequencing
Sample: yeast
Setting: methotrexate growth selection, single substitutions
Added: (+)-ABA 4.8 µM
Relative to: wild-type fitted maximum
Direction: higher = stronger binding
Starting sequence: PYL1, truncated, DHFR fusion (Arabidopsis thaliana); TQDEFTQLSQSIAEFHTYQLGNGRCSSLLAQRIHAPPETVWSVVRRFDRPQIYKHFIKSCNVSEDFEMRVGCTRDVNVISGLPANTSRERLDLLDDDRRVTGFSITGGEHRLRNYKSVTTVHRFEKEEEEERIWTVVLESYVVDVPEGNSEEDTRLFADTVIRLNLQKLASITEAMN
Variant	relative binding score [%]
R90S	19.1
E89Q	0.804
R90P	8.03
S42F	8.73
R69I	69.1
S11T	70
N177L	62
K126A	89.8
V76W	-1.17
V62W	1.99
N22P	80.1
A84C	36.5
V76G	2.07
S80N	31.1
I172S	-10.1
R74E	0.0808
S42V	10.4
V76C	54.2

Block 3
Target: CCNB2, cyclin fold, Cln2 fusion (human)
Technique: yeast growth competition, sequencing
Sample: yeast
Setting: weak parent motif
Relative to: not given
Direction: higher = stronger binding
Starting sequence: SLBP docking peptide (human); ARYKRKLLINDFG; partner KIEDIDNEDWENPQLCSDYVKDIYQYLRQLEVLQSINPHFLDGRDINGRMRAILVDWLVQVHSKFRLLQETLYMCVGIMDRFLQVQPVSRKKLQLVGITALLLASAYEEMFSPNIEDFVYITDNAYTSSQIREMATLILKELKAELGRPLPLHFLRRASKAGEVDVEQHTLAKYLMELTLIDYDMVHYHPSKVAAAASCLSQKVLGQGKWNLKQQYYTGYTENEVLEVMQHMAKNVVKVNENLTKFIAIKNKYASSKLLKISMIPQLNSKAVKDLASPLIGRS
Variant	normalised enrichment score
K4Q	0.435
L8C	0.454
Y3E	0.804
F12T	0.102
K4N	0.57
I9Y	0.513
R5F	-0.129
I9F	0.375
N10G	1.53
N10I	0.524
L7Y	0.899
L7V	0.716
Y3M	0.627
K4G	0.331
I9A	0.346
G13T	0.281
R5D	-0.0393
R5Q	0.204
L7M	0.634
A1G	0.361
A1L	0.306
D11F	0.228
K6S	0.378
K6Y	0.727
R5A L7A	0.331

Block 4
Target: Histone acetyltransferase KAT6A, both winged helices, GST fusion (KAT6A, Homo sapiens, UniProt Q92794, residues 1-181)
Technique: protein binding microarray
Form: double-stranded DNA, one strand shown
Sample: in vitro
Concentration: not given
Setting: 8-mer, flanks averaged, mean of 2 arrays, mostly near background
Relative to: not given
Direction: higher = stronger binding
Construct (chain): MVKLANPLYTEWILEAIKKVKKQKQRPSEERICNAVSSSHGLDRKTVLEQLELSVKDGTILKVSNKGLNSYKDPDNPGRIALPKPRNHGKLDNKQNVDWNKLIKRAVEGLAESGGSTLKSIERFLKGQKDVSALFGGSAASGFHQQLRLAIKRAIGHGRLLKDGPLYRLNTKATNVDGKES
Oligonucleotide	E-score
AGGATACG	-0.00368
CCTCTAAG	-0.0679
CCAAGTTC	-0.0921
CTCGGTAA	0.0497
CAAATTAG	-0.048
CCCTTACG	0.0138
ACAACGGA	0.148
CGTCTCTC	0.00162
CAATTCTG	-0.0986
AAGTTCGA	-0.0462
GTCTCCGA	0.118
AAAAAACA	-0.0611
CGAATGAG	0.141
CTCCGTTC	0.156
GGTACCAA	-0.0938
ATCGTTCC	0.00181
CCATATGA	-0.11
AGTACGGC	0.303
ACTCTGCA	-0.2
ACGCATCG	0.184
CGAACTAG	-0.0671
AGCTGGAG	-0.116
TAACCCGA	0.222

Block 5
Target: Sal-like protein 4, full length isoform A (SALL4, Homo sapiens, UniProt Q9UJQ4, residues 1-1053)
Sequence of UniProt Q9UJQ4 (whole entry, looked up): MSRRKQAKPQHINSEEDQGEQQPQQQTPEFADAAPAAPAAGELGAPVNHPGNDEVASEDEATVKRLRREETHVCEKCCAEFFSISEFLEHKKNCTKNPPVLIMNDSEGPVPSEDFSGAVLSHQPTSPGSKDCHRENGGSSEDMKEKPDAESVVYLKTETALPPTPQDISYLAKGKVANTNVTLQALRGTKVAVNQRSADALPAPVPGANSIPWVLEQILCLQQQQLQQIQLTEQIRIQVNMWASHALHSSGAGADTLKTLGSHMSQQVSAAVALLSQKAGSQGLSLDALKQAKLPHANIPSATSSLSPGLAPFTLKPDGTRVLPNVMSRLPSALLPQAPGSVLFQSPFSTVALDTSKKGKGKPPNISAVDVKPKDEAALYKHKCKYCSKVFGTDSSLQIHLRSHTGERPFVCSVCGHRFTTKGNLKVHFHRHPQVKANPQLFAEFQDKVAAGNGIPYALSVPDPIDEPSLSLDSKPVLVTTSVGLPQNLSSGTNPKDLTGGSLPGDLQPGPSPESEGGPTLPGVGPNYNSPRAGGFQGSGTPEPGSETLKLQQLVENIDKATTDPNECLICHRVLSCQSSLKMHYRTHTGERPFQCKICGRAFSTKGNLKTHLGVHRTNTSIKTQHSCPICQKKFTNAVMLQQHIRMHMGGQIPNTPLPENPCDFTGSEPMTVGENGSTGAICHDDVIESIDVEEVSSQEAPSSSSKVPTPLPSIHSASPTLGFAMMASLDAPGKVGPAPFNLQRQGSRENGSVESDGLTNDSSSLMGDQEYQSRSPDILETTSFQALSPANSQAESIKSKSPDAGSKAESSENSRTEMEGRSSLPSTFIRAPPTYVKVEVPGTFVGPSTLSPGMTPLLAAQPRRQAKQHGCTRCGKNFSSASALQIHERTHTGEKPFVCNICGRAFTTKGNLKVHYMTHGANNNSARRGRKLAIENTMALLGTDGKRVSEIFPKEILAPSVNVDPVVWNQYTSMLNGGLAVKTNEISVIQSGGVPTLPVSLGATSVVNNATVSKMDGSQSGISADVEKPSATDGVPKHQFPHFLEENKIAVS
Technique: universal PBM
Form: double-stranded DNA, one strand shown
Sample: in vitro
Concentration: 600 nM
Setting: 8-mer, flanks averaged, mean of replicates
Direction: higher = stronger binding
Oligonucleotide	E-score
CGAATACA	0.13
GTAAAAAC	0.204
GGTACTAC	0.03
GGTGGTGA	-0.16
ATGGGAGC	-0.167
GATAATCA	0.19
GATTAACC	-0.107
AAGTGTTA	0.223
GCGAATCC	-0.219
GTACAAGA	0.0139
ATCAAATC	0.25
CTGCGTGA	-0.154
CATGAGTC	0.11
GAATTTTA	0.303
AAGGTTTG	0.039
AGTGCCGA	-0.16
GCCCTATA	0.159
GTACCCCA	-0.17
TGTAAGAA	0.195
AGTACAAC	0.113
CCTTTAAC	0.107

Block 6
Target: Transcriptional repressor CTCF (CTCF, Homo sapiens, UniProt P49711, residues 1-727, full length assumed)
Technique: protein-binding microarray
Form: double-stranded DNA, one strand shown
Sample: in vitro
Concentration: not given
Setting: k-mer, scored over probes, only values ≥0.25
Direction: higher = stronger binding
Construct (chain): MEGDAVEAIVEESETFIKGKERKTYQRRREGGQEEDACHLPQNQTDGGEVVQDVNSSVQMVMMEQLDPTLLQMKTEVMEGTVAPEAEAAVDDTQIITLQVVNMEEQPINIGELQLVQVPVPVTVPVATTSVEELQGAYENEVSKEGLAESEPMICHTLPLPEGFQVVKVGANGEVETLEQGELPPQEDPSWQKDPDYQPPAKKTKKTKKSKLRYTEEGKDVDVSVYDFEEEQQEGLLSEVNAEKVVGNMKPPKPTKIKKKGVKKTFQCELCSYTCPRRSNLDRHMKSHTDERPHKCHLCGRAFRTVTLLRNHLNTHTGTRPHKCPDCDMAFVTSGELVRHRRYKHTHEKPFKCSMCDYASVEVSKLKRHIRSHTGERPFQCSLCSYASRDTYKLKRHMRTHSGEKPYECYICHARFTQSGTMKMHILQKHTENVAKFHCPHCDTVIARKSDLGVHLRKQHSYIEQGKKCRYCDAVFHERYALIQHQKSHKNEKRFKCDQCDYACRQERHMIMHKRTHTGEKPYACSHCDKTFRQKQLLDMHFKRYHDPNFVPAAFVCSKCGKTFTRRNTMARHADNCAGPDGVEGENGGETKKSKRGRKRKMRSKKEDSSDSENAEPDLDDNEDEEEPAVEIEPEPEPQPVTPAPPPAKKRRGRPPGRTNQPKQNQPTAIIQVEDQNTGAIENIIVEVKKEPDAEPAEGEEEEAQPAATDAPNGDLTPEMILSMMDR
Oligonucleotide	E-score
CGTGCGCA	0.362
AAATCCAT	0.257
ACATATGT	0.337
CGCATCTA	0.28
AAATGCAA	0.273
CCTTATAA	0.269
ACCCATAT	0.292
CAATATTG	0.29
ATGTCATA	0.25
AATGTGAA	0.288
GTCATACA	0.264
CATTATAA	0.34
ATATTCTC	0.272
CAACATTA	0.265

Single results of other studies
Substance	target	assay	test system	conditions	scale	measurement	result
PhoQ, residues 284 288 289 292 302 303 NLMGRA	PhoP, residues 12 14 15 18 19 TTLRV (Escherichia coli, UniProt P23836)	Sort-seq, refers to: YFP reporter	E. coli	PhoQ-PhoP variant library, added: 10 µM Mg2+	relative to: high Mg2+ state, higher = stronger signaling	fold induction	5.04
